Assay results gathered from unrelated publications.
Each numbered part is a random draw from the data of one study; scales do not carry over between parts. Several values in a cell are separate wells, animals, samples, runs or records.
UniProt P41595, sequence (whole entry, looked up): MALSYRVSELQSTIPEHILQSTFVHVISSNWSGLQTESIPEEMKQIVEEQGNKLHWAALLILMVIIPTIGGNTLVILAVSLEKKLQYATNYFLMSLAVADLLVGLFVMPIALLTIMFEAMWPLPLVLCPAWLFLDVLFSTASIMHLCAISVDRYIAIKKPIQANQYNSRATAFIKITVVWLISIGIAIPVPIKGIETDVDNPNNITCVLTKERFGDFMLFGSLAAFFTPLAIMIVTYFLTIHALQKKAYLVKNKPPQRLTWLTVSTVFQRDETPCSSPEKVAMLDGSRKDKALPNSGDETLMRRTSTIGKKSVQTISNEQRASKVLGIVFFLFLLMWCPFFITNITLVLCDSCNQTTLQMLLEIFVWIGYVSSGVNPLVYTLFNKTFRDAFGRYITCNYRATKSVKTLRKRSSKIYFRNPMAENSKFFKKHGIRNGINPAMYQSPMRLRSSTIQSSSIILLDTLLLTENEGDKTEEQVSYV
UniProt Q9H3N8, sequence (whole entry, looked up): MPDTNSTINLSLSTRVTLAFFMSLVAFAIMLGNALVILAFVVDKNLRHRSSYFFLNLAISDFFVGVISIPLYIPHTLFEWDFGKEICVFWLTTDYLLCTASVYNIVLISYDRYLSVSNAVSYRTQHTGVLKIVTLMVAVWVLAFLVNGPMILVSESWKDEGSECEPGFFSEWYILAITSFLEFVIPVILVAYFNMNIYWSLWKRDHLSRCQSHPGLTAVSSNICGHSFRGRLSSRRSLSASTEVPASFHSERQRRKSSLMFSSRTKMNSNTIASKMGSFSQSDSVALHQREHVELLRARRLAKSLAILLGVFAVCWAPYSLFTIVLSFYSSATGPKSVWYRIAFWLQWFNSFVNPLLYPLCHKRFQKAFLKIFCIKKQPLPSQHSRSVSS

Study 1
Cell line: mouse MPNST tumor cells
Technique: high-content nuclear imaging
Measured: cell number
Tested at: 10 µM
Time: 12 h
Notes: mean of 2 replicates
Baseline: plate mean
Reading: higher = more cells
Endpoint: nuclei count
C[C@@H](O)CNC(C)(C)CC(=O)N[C@@H]1CCc2ccccc2N(Cc2ccc(-c3ccccc3-c3nn[nH]n3)cc2)C1=O: 2.09 z-score
Cc1ccc(NC(=O)Nc2cc(C(F)(F)F)ccc2F)cc1Nc1ccc2c(c1)NC(=O)/C2=C\c1ccc[nH]1: 1.25 z-score
COC(=O)Nc1nc2cc(C(=O)c3ccc(F)cc3)ccc2[nH]1: -4.25 z-score

Study 2
Cell line: HaCaT
Tested at: 100 µM
Time: 36 h
Endpoint: viability
OCCN1CCN(CCCN2c3ccccc3Sc3ccc(Cl)cc32)CC1: 5.62%
O=c1cc[nH]c(=S)[nH]1: 92%
CC[C@H]1OC(=O)C[C@@H](O)[C@H](C)[C@@H](O[C@@H]2O[C@H](C)[C@@H](O[C@H]3C[C@@](C)(O)[C@@H](O)[C@H](C)O3)[C@H](N(C)C)[C@H]2O)[C@@H](CC=O)C[C@@H](C)C(=O)/C=C/C(C)=C/[C@@H]1CO[C@@H]1O[C@H](C)[C@@H](O)[C@@H](OC)[C@H]1OC: 85.2%
C[N+](C)(C)CCOC(N)=O: 89.5%
CCN(CC)CCNC(=O)c1cc(Cl)c(N)cc1OC: 84.7%

Other studies, line by line
CCOCCn1cc(C(=O)Nc2ccc(-n3nc(-c4cccnc4)cc3C(F)(F)F)cn2)ccc1=O
inhibition (HTR2B (Homo sapiens, UniProt P41595); binding, radioligand binding; 10 µM): -11.7%

CCOc1ccc(Nc2c3c(nc4ccccc24)CCC3)cc1
normalised inhibition (Leishmania donovani; parasite viability, resazurin; DD8, promastigotes; 66.66 µM): 100%

CN1C(=O)[C@@H](N2CCc3c(nn(Cc4ccccc4)c3Br)C2=O)COc2ccccc21
inhibition (HRH4 (Homo sapiens, UniProt Q9H3N8); cell-free assay; 10 µM): 14.7%

c1ccc(Oc2ccc(Nc3c4c(nc5ccccc35)CCC4)cc2)cc1
normalised inhibition (Leishmania donovani; parasite viability, resazurin; DD8, promastigotes; 66.66 µM): 100% and 99%

A few entries again (study 1):
Cc1ccc(NC(=O)Nc2cc(C(F)(F)F)ccc2F)cc1Nc1ccc2c(c1)NC(=O)/C2=C\c1ccc[nH]1: 1.25 z-score
